Measurements pooled from the literature.
Numbers after ± are the reported error.
lecB: Fucose-binding lectin PA-IIL (lecB, Pseudomonas aeruginosa, UniProt Q9HYN5)
Chain of UniProt Q9LFP6 (whole entry, looked up): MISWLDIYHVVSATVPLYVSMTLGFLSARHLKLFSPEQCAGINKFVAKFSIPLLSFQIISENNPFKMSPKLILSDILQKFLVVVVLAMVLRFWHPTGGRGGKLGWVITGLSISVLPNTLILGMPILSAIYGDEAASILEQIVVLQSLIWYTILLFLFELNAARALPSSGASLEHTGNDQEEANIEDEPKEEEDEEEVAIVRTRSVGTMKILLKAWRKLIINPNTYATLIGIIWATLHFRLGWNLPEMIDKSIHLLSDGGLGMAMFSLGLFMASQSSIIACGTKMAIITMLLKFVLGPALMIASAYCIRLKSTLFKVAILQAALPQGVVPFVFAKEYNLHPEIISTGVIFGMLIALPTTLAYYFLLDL
Chain of UniProt P31948 (whole entry, looked up): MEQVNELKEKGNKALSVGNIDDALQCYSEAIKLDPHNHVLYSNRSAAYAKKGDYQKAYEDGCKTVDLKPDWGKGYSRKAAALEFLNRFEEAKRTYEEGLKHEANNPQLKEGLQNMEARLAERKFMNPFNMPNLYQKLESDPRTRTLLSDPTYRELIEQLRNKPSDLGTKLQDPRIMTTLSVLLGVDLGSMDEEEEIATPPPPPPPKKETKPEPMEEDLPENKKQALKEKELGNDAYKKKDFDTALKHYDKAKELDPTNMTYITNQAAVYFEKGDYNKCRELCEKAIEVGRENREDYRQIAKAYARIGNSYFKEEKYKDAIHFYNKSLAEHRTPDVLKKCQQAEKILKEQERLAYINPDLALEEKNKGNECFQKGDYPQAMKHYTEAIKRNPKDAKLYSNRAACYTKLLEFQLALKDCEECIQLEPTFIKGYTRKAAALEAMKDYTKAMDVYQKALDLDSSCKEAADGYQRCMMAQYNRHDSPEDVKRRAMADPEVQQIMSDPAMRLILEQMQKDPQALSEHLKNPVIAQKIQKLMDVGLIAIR
Chain of UniProt P10275 (whole entry, looked up): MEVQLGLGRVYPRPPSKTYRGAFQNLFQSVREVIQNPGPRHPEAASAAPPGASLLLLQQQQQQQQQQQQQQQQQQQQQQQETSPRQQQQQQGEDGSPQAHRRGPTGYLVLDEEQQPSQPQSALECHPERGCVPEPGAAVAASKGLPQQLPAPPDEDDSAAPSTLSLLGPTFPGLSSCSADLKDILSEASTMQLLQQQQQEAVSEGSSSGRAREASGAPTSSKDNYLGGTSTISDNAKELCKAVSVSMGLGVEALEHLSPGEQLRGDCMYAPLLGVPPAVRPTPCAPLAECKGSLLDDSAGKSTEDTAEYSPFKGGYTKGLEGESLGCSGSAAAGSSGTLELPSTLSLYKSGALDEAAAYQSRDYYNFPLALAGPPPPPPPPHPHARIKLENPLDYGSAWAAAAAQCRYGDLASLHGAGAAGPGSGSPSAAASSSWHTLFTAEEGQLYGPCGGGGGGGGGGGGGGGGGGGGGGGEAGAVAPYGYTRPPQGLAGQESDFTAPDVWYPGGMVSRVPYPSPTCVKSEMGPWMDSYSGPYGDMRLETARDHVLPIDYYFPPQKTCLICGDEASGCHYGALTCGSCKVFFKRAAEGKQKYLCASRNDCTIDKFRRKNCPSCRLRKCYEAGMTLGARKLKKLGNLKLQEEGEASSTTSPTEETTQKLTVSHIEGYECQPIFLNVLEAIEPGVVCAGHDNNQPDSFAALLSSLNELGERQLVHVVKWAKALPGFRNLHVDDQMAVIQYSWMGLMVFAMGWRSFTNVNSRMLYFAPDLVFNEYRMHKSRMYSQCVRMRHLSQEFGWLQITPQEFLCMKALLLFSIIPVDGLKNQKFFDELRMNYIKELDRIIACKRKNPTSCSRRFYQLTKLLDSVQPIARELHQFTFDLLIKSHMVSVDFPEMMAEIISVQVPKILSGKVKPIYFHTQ
Chain of UniProt P02550 (whole entry, looked up): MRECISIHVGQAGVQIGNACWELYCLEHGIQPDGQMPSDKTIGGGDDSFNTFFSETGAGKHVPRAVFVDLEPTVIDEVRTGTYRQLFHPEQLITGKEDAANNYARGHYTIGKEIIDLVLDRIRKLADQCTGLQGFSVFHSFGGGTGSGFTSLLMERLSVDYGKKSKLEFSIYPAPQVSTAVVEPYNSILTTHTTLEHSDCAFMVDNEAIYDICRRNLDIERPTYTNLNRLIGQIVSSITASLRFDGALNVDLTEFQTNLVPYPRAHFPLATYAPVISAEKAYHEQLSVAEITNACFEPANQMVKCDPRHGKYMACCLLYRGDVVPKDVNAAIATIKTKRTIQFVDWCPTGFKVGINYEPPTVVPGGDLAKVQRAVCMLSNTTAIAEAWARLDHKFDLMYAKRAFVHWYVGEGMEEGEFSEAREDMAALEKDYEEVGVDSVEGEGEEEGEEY
Chain of UniProt Q06911 (whole entry, looked up): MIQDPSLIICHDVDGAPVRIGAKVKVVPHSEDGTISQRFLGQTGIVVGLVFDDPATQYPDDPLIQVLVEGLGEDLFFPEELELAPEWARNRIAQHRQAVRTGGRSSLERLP
Chain of UniProt P02554 (whole entry, looked up): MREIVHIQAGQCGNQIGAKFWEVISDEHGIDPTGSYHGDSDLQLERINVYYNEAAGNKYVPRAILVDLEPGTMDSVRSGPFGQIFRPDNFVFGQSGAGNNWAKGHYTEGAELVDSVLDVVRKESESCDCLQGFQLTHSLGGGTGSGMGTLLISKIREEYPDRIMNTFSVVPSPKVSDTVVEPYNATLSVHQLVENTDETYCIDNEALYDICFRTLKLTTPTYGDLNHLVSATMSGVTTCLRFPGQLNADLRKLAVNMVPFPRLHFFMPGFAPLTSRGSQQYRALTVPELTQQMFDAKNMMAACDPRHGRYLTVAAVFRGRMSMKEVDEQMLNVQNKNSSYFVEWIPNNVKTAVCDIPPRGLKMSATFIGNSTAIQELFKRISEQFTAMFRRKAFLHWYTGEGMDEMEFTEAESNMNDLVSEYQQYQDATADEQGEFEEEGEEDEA
Chain of UniProt P11362 (whole entry, looked up): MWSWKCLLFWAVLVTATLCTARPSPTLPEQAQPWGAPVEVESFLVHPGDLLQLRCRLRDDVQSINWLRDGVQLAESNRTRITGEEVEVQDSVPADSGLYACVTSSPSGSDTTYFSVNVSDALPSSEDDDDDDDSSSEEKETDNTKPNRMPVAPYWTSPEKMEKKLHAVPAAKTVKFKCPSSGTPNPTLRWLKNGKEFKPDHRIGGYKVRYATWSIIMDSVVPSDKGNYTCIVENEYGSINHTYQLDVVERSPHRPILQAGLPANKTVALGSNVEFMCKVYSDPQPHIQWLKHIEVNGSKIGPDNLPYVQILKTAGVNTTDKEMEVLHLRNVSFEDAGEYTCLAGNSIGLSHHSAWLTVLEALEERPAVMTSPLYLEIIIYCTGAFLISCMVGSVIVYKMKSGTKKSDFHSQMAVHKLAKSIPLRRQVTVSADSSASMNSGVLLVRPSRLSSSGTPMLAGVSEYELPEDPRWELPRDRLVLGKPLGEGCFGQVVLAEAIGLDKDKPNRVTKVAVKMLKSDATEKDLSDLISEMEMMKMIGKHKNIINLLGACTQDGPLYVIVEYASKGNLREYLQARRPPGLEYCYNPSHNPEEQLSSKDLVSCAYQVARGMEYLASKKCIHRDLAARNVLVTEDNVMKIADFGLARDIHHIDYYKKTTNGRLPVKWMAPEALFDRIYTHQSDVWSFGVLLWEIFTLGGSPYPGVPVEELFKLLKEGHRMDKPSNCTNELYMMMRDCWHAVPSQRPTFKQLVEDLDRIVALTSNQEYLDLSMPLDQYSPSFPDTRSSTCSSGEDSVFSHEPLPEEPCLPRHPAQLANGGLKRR
Chain of UniProt Q9ESK4 (whole entry, looked up): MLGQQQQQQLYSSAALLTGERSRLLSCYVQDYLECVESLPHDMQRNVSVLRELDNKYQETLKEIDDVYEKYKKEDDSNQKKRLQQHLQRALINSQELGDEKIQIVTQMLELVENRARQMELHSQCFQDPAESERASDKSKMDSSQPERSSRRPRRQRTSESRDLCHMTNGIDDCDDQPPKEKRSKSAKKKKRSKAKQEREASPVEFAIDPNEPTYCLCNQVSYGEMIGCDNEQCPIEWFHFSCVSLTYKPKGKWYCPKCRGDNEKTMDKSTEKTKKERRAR
Chain of UniProt Q07741 (whole entry, looked up): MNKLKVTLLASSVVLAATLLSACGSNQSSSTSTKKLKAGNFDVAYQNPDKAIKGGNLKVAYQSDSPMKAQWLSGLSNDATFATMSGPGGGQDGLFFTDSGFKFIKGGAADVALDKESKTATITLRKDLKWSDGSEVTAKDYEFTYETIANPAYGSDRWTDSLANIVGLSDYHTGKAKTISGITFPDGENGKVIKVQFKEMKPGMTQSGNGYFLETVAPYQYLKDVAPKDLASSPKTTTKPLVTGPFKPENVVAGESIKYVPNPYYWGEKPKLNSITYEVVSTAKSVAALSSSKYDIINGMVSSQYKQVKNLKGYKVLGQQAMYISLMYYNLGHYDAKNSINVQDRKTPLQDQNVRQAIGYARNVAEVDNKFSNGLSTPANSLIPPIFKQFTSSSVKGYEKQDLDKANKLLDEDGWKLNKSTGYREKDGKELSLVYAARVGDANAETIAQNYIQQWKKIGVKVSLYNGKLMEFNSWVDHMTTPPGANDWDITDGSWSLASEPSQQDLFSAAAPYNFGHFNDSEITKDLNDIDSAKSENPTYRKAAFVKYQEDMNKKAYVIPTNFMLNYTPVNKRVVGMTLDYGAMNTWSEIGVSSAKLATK
Chain of UniProt O66465 (whole entry, looked up): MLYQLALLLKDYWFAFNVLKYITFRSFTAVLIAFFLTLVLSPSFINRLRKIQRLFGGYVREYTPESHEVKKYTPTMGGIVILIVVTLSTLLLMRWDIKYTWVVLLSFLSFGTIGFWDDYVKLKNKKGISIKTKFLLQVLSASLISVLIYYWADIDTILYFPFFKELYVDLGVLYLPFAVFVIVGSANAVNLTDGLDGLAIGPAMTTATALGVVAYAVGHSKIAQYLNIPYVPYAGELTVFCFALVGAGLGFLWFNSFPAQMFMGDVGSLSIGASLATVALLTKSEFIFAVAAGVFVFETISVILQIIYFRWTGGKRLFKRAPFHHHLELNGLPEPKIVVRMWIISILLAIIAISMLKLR

The Kd of `CC[C@H](C)[C@H](NC(=O)[C@H](Cc1c[nH]cn1)NC(=O)[C@H](CCCCNC(=O)[C@@H](NC(=O)[C@H](CCCCN)NC(=O)CSC[C@H](NC(=O)[C@H](Cc1ccccc1)NC(=O)[C@H](CCCCNC(=O)[C@H](CC(C)C)NC(=O)[C@@H]1CCCN1C(=O)[C@H](CCCCN)NC(=O)c1ccc(O[C@@H]2O[C@H](CO)[C@H](O)[C@H](O)[C@H]2O)cc1)NC(=O)[C@H](CC(C)C)NC(=O)[C@@H]1CCCN1C(=O)[C@H](CCCCN)NC(=O)C[C@@H]1O[C@@H](C)[C@@H](O)[C@@H](O)[C@@H]1O)C(N)=O)[C@@H](C)CC)NC(=O)[C@@H](NC(=O)[C@H](CCCCN)NC(=O)CSC[C@H](NC(=O)[C@H](Cc1ccccc1)NC(=O)[C@H](CCCCNC(=O)[C@H](CC(C)C)NC(=O)[C@@H]1CCCN1C(=O)[C@H](CCCCN)NC(=O)c1ccc(O[C@@H]2O[C@H](CO)[C@H](O)[C@H](O)[C@H]2O)cc1)NC(=O)[C@H](CC(C)C)NC(=O)[C@@H]1CCCN1C(=O)[C@H](CCCCN)NC(=O)C[C@@H]1O[C@@H](C)[C@@H](O)[C@@H](O)[C@@H]1O)C(N)=O)[C@@H](C)CC)C(N)=O` is reported as 276 nM (lecB; binding, ITC; pH 7.5).
`O=C(O)COc1ccccc1` has a Kd of 489000 nM (PIN8 (Arabidopsis thaliana, UniProt Q9LFP6); cell-free assay).
`CC[C@H](C)[C@H](NC(=O)[C@H](Cc1c[nH]cn1)NC(=O)[C@H](CCCCNC(=O)[C@@H](NC(=O)[C@H](CCCCN)NC(=O)CSC[C@H](NC(=O)[C@H](Cc1ccccc1)NC(=O)[C@H](CCCCNC(=O)[C@H](CC(C)C)NC(=O)[C@H](CCCCN)NC(=O)[C@H](CCCCN)NC(=O)C[C@@H]1O[C@@H](C)[C@@H](O)[C@@H](O)[C@@H]1O)NC(=O)[C@H](CC(C)C)NC(=O)[C@H](CCCCN)NC(=O)[C@H](CCCCN)NC(=O)CCS[C@@H]1O[C@H](CO)[C@H](O)[C@H](O)[C@H]1O)C(N)=O)[C@@H](C)CC)NC(=O)[C@@H](NC(=O)[C@H](CCCCN)NC(=O)CSC[C@H](NC(=O)[C@H](Cc1ccccc1)NC(=O)[C@H](CCCCNC(=O)[C@H](CC(C)C)NC(=O)[C@H](CCCCN)NC(=O)[C@H](CCCCN)NC(=O)C[C@@H]1O[C@@H](C)[C@@H](O)[C@@H](O)[C@@H]1O)NC(=O)[C@H](CC(C)C)NC(=O)[C@H](CCCCN)NC(=O)[C@H](CCCCN)NC(=O)CCS[C@@H]1O[C@H](CO)[C@H](O)[C@H](O)[C@H]1O)C(N)=O)[C@@H](C)CC)C(N)=O` gave a Kd of 193 nM (lecB; binding, ITC; pH 7.5).
For `CC(C)C[C@H](NC(=O)[C@H](CCCNC(=N)N)NC(=O)[C@H](CCC(=O)O)NC(=O)[C@H](CCCCN)NC(=O)[C@H](CCCNC(=N)N)NC(=O)[C@H](CCCCN)NC(=O)[C@H](CCC(=O)O)NC(=O)[C@H](CC(C)C)NC(=O)[C@H](Cc1ccccc1)NC(=O)[C@H](CCCNC(=N)N)NC(=O)[C@H](C)NC(=O)[C@H](CC(C)C)NC(=O)[C@H](CO)NC(=O)[C@H](C)NC(=O)[C@H](CCCCN)NC(=O)[C@H](CCCNC(=N)N)NC(=O)[C@H](C)NC(=O)[C@H](CCC(N)=O)NC(=O)[C@@H]1CCCN1C(=O)[C@@H](NC(=O)[C@H](CO)NC(=O)c1ccc2c(c1)C(=O)OC21c2ccc(N(C)C)cc2Oc2cc(N(C)C)ccc21)C(C)C)C(=O)O`, the Kd was 15 ± 4.3 nM (COI1, with JA-Ile (Arabidopsis thaliana, UniProt O04197); COI1-JAZ binding, fluorescence anisotropy; pH 7.8, 25 °C, added: IP5 100 nM; lower = stronger binding).
`CSCC[C@H](NC(C)=O)C(=O)N[C@@H](CO)C(=O)N[C@@H](CO)C(=O)N1CCC[C@H]1C(=O)N1CCC[C@H]1C(=O)N[C@H]1CSCc2cc3cc(c2)CSC[C@@H](C(=O)N[C@@H](CC(C)C)C(=O)N[C@@H](CCCNC(=N)N)C(=O)N[C@@H](CCCNC(=N)N)C(=O)N[C@@H](Cc2ccc(O)cc2)C(=O)NCC(=O)N[C@@H](CO)C(=O)NCC(=O)N[C@@H](CO)C(=O)NCC(=O)N[C@@H](CO)C(=O)N[C@@H](CC(=O)O)C(=O)N[C@@H](Cc2ccc(O)cc2)C(=O)N[C@@H](CCCCN)C(=O)N[C@@H](CC(=O)O)C(=O)N[C@@H](CC(=O)O)C(=O)N[C@@H](CC(=O)O)C(=O)N[C@@H](CC(=O)O)C(=O)N[C@@H](CCCCN)C(N)=O)NC(=O)[C@H](CSC3)NC(=O)CNC(=O)[C@H](CC(C)C)NC(=O)[C@H]([C@@H](C)O)NC1=O` has a Kd of 4150 nM (Fibroblast growth factor receptor 1 (FGFR1, Homo sapiens, UniProt P11362); binding, BLI).
`CC[C@H](C)[C@H](NC(=O)CNC(C)=O)C(=O)N[C@@H](CCCNC(=N)N)C(=O)N[C@@H](CCC(=O)O)C(=O)N[C@@H](C)C(=O)N[C@H](C(=O)N[C@@H](CC(C)C)C(=O)N[C@@H](CCCNC(=N)N)C(=O)N[C@@H](C)C(=O)N[C@@H](Cc1c[nH]c2ccccc12)C(=O)N[C@@H](CCC(=O)O)C(=O)N[C@@H](CCCNC(=N)N)C(=O)N[C@@H](CCCNC(=N)N)C(=O)N[C@@H](Cc1ccc(O)cc1)C(=O)NCC(N)=O)[C@@H](C)O` gave a Kd of 490 ± 90 nM (Antirepressor protein CarS (carS, Myxococcus xanthus, UniProt Q06911); isothermal titration calorimetry; pH 7.5, 25 °C).
`CC[C@H](C)[C@H](NC(=O)[C@H](CCC(=O)O)NC(=O)[C@]1(C)CCCC=CCCCCCC[C@@](C)(NC(=O)[C@H](CCCNC(=N)N)NC(=O)[C@H](CC(N)=O)NC(=O)[C@H](CCC(=O)O)NC(=O)[C@@H]2CCCN2C(=O)[C@H](CC(=O)O)NC(=O)[C@H](CC(N)=O)NC(=O)[C@H](CC(=O)O)NC(=O)[C@H](CC(=O)O)NC(=O)[C@@H](N)CO)C(=O)N[C@@H](C)C(=O)N[C@@H](CCCCN)C(=O)N[C@@H](CCCCN)C(=O)N[C@@H](CCSC)C(=O)N[C@@H](CC(C)C)C(=O)N[C@@H](CC(C)C)C(=O)N1)C(=O)N[C@@H](CCCCN)C(=O)N[C@@H](C)C(=O)N[C@@H](CC(N)=O)C(=O)N[C@@H](CC(C)C)C(=O)N[C@@H](CO)C(=O)O` gave a Kd of 550 nM (Death domain-associated protein 6, residues 55-144 (Homo sapiens, UniProt Q9UER7); isothermal titration calorimetry; pH 7.5, 25 °C).
The Kd of `N=C(N)NCCC[C@H](NC(=O)[C@H](Cc1ccccc1)NC(=O)[C@@H]1CCCN1C(=O)[C@H](CO)NC(=O)[C@H](Cc1ccccc1)NC(=O)CNC(=O)[C@@H]1CCCN1C(=O)[C@@H]1CCCN1C(=O)[C@@H](N)CCCNC(=N)N)C(=O)N[C@@H](CCCCNS(=O)(=O)c1ccc(C2=c3cc4c5c(c3Oc3c2cc2c6c3CCCN6CCC2)CCC[N+]=5CCC4)c(S(=O)(=O)[O-])c1)C(=O)O` is reported as 24000 ± 1000 nM (Oligopeptide-binding protein OppA (oppA, Lactococcus lactis subsp. lactis, UniProt Q07741); binding, fluorescence anisotropy; pH 6, 45 °C, added: dye-labelled peptide).
The Kd of `N=C(N)NCCC[C@H](NC(=O)[C@H](CS)NC(=O)[C@H](Cc1ccc(O)cc1)NC(=O)[C@H](Cc1c[nH]c2ccccc12)NC(=O)[C@H](CCCNC(=N)N)NC(=O)[C@H](Cc1c[nH]c2ccccc12)NC(=O)CNC(=O)[C@H](Cc1c[nH]cn1)NC(=O)CNC(=O)CN)C(N)=O` is reported as 10000 ± 2000 nM (HCV IIB RNA; fluorescein-labelled RNA titration; 1 mM TCEP).
For `N[C@H](Cc1ccccc1)P(=O)(O)O`, the Kd was 6200 nM (PAL1 (Petroselinum crispum, UniProt P24481, Y110F); ITC; pH 8.0, 30 °C).
For `CC(C)CC(NC(=O)C(NC(=O)NC(C(=O)O)C(C)C)C1CCNC(=N)N1)C(=O)NCCCNC(C(=O)O)C(OC1OC(CN)C(O)C1O)C1OC(n2ccc(=O)[nH]c2=O)C(O)C1O` (stereo not shown), the Kd was 17.2 nM (Phospho-N-acetylmuramoyl-pentapeptide-transferase (mraY, Aquifex aeolicus, UniProt O66465); isothermal titration calorimetry; added: 10 mM MgCl2).
`CC[C@H](C)[C@H](NC(=O)[C@H](CCC(N)=O)NC(=O)[C@@H](NC(=O)[C@H](CO)NC(=O)CNC(=O)CNC(=O)CNC(=O)[C@@H]1CCCN1C(=O)[C@@H](NC(=O)[C@H](Cc1c[nH]cn1)NC(=O)[C@H](CCCCN)NC(=O)[C@@H](N)CCCCN)C(C)C)C(C)C)C(=O)N[C@H](C(=O)N[C@@H](Cc1ccc(O)cc1)C(=O)N[C@@H](CCCCN)C(=O)N1CCC[C@H]1C(=O)N[C@H](C(=O)N[C@@H](CC(=O)O)C(=O)N[C@@H](CC(C)C)C(=O)NCC(=O)NCC(=O)NCC(=O)N[C@@H](CSC1CC(=O)N(c2ccc3c(c2)C(=O)OC32c3ccc(N(C)C)cc3Oc3cc(N(C)C)ccc32)C1=O)C(=O)O)C(C)C)C(C)C` (stereo partly shown) gave a Kd of 40000 nM (Tubulin alpha-1A/beta chain (Sus scrofa, UniProt P02550+P02554); binding, equilibrium dialysis; pH 6.9, 25 °C).
`C[C@H](N)C(=O)N[C@@H](CCCNC(=N)N)C(=O)N[C@H](C(=O)N[C@@H](CCCC[N+](C)(C)C)C(=O)N[C@@H](CCC(N)=O)C(=O)N[C@H](C(=O)N[C@@H](C)C(=O)N[C@@H](CCCNC(=N)N)C(=O)N[C@@H](CCCCN)C(=O)N[C@@H](CO)C(=O)N[C@H](C(=O)NCC(N)=O)[C@@H](C)O)[C@@H](C)OP(=O)(O)O)[C@@H](C)O` gave a Kd of 19900 nM (Inhibitor of growth protein 2, PHD finger (Ing2, Mus musculus, UniProt Q9ESK4); binding, isothermal titration calorimetry; pH 7.2).
With `CC[C@H](C)[C@H](NC(=O)[C@H](CCCNC(=N)N)NC(=O)[C@H](CO)NC(=O)[C@@H](NC(=O)[C@H](CC(=O)O)NC(=O)[C@H](CC(=O)O)NC(=O)CCCCCNC(=O)c1ccc2c(c1)C(=O)OC21c2ccc(O)cc2Oc2cc(O)ccc21)[C@@H](C)O)C(=O)N[C@@H](CCC(=O)O)C(=O)N[C@@H](CCC(=O)O)C(=O)N[C@H](C(=O)N[C@@H](CC(=O)O)C(=O)O)C(C)C` the Kd was greater than 25000 nM (Stress-induced-phosphoprotein 1 (STIP1, Homo sapiens, UniProt P31948); binding, FP; pH 7.4).
`CC(=O)/C=C/c1c(CCCC(=O)NCC(=O)NCc2cn(CCCNC(=O)c3ccc4c(c3)C(=O)OC43c4ccc(N(C)C)cc4Oc4cc(N(C)C)ccc43)nn2)[nH]c(=O)[nH]c1=O` has a Kd of 20 nM (Major histocompatibility complex class I-related protein 1 (MR1, Homo sapiens, UniProt Q95460); binding, fluorescence polarization; apo protein).
`CCOC(=O)Nc1ccc2c(c1)CN1C(=S)N(c3ccc(C#N)c(C(F)(F)F)c3)C(=O)C1C2` (stereo not shown) gave a Kd of 558 nM (Androgen receptor (AR, Homo sapiens, UniProt P10275); binding, SPR).

A few entries again:
`CCOC(=O)Nc1ccc2c(c1)CN1C(=S)N(c3ccc(C#N)c(C(F)(F)F)c3)C(=O)C1C2` (stereo not shown) gave a Kd of 558 nM (Androgen receptor (AR, Homo sapiens, UniProt P10275); binding, SPR).
